Results collected from several papers.
Parts stem from different laboratories: compare values within a part only. “And” joins repeats or separate records; there may be more than shown.
Chain of UniProt P00519 (whole entry, unmodified, looked up): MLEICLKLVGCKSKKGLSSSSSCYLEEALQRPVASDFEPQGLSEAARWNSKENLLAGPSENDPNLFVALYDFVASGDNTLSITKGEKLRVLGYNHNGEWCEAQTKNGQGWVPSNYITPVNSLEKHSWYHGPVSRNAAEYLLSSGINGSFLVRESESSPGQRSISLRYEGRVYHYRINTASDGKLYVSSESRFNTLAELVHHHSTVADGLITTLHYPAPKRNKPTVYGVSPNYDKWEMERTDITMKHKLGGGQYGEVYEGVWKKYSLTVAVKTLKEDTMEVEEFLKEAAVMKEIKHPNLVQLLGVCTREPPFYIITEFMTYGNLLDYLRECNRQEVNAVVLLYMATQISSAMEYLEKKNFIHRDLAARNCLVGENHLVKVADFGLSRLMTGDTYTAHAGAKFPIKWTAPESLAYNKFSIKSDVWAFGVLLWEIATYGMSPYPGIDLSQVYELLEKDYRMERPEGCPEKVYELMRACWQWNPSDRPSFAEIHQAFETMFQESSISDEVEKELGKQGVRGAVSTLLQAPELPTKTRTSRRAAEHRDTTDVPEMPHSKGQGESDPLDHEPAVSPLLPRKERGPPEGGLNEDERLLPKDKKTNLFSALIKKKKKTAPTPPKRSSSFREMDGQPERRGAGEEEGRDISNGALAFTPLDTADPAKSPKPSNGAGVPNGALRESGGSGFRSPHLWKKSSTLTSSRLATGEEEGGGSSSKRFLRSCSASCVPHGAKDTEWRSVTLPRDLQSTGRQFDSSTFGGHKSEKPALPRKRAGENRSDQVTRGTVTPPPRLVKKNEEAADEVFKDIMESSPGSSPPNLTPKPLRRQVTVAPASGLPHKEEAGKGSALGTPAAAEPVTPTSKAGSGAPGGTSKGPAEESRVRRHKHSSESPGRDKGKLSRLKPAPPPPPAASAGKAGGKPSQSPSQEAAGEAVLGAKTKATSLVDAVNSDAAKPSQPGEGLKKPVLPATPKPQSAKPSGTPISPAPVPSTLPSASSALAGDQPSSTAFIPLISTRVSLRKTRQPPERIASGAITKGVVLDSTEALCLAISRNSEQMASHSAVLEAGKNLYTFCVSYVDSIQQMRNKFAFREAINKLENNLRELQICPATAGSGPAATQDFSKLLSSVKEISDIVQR
Chain of UniProt Q6ZN16 (whole entry, looked up): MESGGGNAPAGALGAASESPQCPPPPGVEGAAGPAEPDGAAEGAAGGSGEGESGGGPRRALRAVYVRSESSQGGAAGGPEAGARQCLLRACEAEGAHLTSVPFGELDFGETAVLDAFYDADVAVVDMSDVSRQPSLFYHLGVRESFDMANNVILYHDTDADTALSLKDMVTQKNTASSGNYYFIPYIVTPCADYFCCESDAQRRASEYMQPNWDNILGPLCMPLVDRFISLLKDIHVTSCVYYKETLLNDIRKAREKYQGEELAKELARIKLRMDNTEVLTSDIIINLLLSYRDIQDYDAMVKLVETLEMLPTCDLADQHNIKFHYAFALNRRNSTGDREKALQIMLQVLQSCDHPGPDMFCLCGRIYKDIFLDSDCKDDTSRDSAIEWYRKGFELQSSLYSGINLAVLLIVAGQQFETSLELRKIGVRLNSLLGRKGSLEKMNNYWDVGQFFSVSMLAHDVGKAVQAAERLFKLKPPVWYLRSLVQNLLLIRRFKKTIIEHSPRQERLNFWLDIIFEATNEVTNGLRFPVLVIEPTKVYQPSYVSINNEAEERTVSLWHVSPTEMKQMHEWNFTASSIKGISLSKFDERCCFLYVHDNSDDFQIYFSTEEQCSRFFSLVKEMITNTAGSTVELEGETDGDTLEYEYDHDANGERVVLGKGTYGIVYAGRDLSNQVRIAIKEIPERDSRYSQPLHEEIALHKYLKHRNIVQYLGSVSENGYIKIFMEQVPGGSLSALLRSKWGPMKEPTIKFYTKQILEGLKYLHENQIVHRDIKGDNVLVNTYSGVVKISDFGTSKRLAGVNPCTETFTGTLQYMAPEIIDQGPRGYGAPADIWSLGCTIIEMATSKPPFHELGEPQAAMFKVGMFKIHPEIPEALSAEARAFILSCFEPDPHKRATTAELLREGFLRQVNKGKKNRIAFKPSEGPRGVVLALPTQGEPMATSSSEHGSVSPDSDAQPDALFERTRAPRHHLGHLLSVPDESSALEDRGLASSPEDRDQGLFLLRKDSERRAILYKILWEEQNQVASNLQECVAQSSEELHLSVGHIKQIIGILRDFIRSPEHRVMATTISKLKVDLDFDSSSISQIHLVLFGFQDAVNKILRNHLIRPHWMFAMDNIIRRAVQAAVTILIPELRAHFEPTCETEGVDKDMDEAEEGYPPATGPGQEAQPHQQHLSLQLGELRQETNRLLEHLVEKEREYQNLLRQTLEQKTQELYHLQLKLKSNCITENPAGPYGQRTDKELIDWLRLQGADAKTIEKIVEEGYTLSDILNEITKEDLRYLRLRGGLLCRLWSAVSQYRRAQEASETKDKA

Block 1 — cell line: mouse MPNST tumor cells; technique: high-content immunofluorescence imaging; measured: nuclear SOX9; concentration: 10 µM; time: 12 h; setting: mean of 2 replicates; reference: DMSO control; direction: higher = more nuclear SOX9
Structure (SMILES)	nuclear SOX9 intensity
CCC(C)CNCC(=O)N1CCc2sccc2C1COc1cccc(C)c1 (stereo not shown)	201 % of DMSO
CCC1(c2ccccc2)C(=O)NCNC1=O	95.6 % of DMSO and 99.5 % of DMSO
Cc1c(O)c(=O)n(-c2ccccc2)n1C	101 % of DMSO
Cc1nc2n(c(=O)c1CCN1CCC(c3noc4cc(F)ccc34)CC1)CCCC2	95.2 % of DMSO and 94.4 % of DMSO

Block 2 — organism: Sarcocystis neurona; observed: parasite growth; concentration: concentration not given; setting: first screen; reference: untreated
SMILES	log2 fold change
CN1[C@@H](CC(=O)c2ccccc2)CCC[C@H]1C[C@H](O)c1ccccc1.Cl	0.0121
CC(C)NCC(O)c1ccc(O)c(O)c1.Cl (stereo not shown)	0.17
C[C@H](N[C@@H](CCc1ccccc1)C(=O)O)C(=O)N1CCC[C@H]1C(=O)O	-0.09
Cc1sc(N)c(C(=O)c2cccc(C(F)(F)F)c2)c1C	0.27
C[N+]1(C)CCCC(OC(=O)C(O)(c2ccccc2)c2ccccc2)C1.[Br-] (stereo not shown)	0.19
Nc1nc(Cl)nc2c1ncn2[C@@H]1O[C@H](CO)[C@@H](O)[C@H]1O	0.04

Block 3 — technique: competition with immobilised ligand; concentration: 1 µM
Compound: Cc1c(C(=O)O)cc(-c2ccc(C3CCNCC3)cc2)c2ccc(-c3ccc(C(F)(F)F)cc3)cc12
target	observed	remaining binding [%]
BMPR1B (Homo sapiens, UniProt O00238)	cell-free assay	100
MAP3K7 (Homo sapiens, UniProt O43318)	binding	100
ERN1 (Homo sapiens, UniProt O75460)	cell-free assay	100
ABL2 (Homo sapiens, UniProt P42684)	binding	100
Ribosomal protein S6 kinase alpha-6, N-terminal kinase domain (RPS6KA6, Homo sapiens, UniProt Q9UK32)	binding	100
FGFR1 (Homo sapiens, UniProt P11362)	cell-free assay	100
VRK2 (Homo sapiens, UniProt Q86Y07)	binding	100
EPHA8 (Homo sapiens, UniProt P29322)	cell-free assay	100
GSK3B (Homo sapiens, UniProt P49841)	cell-free assay	100
CSNK2A2 (Homo sapiens, UniProt P19784)	cell-free assay	100
PIP4K2C (Homo sapiens, UniProt Q8TBX8)	binding	100
STK3 (Homo sapiens, UniProt Q13188)	binding	100
PIM3 (Homo sapiens, UniProt Q86V86)	binding	100
CDKL1 (Homo sapiens, UniProt Q00532)	binding	82
MAP3K15 (Homo sapiens, UniProt Q6ZN16)	binding	100
MARK4 (Homo sapiens, UniProt Q96L34)	binding	97
SRC (Homo sapiens, UniProt P12931)	cell-free assay	100
EGFR (Homo sapiens, UniProt P00533, del746-750)	cell-free assay	100

Block 4 — observed: enzyme activity; action: inhibitor; concentration: 77 µM; reference: untreated
Target: DNA polymerase theta, ATPase domain (POLQ, Homo sapiens, UniProt O75417)
Chain of UniProt O75417 (whole entry, unmodified, looked up): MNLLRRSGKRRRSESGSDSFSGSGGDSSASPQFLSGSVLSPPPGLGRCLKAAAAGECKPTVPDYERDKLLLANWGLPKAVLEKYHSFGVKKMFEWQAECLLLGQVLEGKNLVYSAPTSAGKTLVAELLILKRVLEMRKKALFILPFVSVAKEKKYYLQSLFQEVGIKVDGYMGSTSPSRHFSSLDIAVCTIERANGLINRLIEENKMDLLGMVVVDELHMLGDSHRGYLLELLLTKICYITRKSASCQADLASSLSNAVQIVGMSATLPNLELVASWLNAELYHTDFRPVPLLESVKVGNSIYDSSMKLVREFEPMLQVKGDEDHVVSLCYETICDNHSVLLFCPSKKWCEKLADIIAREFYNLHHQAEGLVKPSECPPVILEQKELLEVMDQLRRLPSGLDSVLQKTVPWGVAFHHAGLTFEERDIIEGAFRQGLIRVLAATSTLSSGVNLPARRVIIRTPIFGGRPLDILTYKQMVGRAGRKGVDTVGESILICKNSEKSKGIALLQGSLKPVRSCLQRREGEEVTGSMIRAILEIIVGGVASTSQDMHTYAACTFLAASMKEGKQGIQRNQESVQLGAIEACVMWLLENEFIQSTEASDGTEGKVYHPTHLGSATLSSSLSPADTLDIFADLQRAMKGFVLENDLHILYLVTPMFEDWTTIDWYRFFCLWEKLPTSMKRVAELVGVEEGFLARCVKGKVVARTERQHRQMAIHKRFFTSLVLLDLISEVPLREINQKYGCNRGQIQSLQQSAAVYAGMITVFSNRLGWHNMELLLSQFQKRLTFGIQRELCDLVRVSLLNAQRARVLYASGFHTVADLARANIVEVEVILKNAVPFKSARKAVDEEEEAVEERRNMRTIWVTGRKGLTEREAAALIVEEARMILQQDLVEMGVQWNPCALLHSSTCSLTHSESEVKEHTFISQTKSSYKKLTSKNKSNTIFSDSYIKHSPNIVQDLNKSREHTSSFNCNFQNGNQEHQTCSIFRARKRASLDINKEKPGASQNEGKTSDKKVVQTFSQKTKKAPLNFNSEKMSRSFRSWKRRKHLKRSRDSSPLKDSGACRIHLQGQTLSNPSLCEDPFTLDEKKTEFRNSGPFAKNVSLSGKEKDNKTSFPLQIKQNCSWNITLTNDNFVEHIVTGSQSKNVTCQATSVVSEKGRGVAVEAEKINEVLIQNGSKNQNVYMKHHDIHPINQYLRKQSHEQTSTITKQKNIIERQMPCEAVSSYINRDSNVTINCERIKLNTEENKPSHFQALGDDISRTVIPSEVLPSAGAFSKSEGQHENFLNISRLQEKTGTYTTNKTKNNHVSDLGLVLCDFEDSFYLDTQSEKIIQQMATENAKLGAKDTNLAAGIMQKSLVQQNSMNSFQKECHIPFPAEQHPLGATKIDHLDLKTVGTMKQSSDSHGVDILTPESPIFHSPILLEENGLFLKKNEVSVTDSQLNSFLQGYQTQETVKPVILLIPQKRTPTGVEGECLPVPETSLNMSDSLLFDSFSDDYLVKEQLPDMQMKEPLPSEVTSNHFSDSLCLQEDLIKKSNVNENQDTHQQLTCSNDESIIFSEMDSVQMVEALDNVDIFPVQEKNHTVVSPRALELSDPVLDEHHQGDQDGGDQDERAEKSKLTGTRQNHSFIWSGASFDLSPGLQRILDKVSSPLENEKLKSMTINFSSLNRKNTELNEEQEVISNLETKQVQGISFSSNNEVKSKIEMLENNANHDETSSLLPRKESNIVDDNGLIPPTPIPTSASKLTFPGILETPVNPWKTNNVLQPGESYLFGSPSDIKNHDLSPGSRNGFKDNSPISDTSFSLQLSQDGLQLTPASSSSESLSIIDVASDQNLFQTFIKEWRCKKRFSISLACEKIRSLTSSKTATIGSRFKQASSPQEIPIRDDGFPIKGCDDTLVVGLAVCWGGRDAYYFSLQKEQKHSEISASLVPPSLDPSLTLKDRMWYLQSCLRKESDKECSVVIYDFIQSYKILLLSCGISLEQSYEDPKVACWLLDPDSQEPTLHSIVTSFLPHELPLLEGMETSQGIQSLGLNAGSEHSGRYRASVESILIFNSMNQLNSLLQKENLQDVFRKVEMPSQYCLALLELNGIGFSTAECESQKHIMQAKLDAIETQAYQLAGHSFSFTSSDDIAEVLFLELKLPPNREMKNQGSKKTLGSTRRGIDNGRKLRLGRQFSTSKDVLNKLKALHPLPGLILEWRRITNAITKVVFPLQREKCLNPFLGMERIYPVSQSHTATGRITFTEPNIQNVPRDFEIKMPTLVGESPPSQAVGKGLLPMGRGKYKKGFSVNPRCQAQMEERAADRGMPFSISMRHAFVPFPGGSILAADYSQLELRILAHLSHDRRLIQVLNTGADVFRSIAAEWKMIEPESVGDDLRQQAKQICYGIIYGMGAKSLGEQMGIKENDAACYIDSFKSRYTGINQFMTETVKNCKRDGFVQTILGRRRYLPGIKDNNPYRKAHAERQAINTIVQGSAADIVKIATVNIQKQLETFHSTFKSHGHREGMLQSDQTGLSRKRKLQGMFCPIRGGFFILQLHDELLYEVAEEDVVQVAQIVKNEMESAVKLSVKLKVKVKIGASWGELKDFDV
SMILES	remaining activity
N=C(N=C(N)N)N1CCOCC1	93.6%
Cc1cc(CC(=O)O)n(C)c1C(=O)c1ccc(Cl)cc1	101%
Nc1ccc(S(=O)(=O)Nc2ccc(Cl)nn2)cc1	97.7%
O=C(NC1CCOCC1)c1ccc(-c2cc(-c3c[nH]nc3-c3ccccn3)ccn2)cc1	100%
Cc1ccccc1C(=O)Nc1ccc(C(=O)N2CCCC(O)c3cc(Cl)ccc32)c(C)c1 (stereo not shown)	102%

Block 5 — concentration: 1 µM
SMILES: COc1ccc2[nH]c3c4[nH]c5ccc(OC)cc5c4c4c(c3c2c1)C(=O)NC4=O
target	observed	technique	remaining binding
CDK17 (Homo sapiens, UniProt Q00537)	binding	competition with immobilised ligand	72%
TAOK3 (Homo sapiens, UniProt Q9H2K8)	binding	competition with immobilised ligand	96%
MAPK13 (Homo sapiens, UniProt O15264)	binding	competition with immobilised ligand	86%
ABL1 (Homo sapiens, UniProt P00519, H396P)			34% and 65%

Repeated from above (block 3):
target	observed	remaining binding [%]
ABL2 (Homo sapiens, UniProt P42684)	binding	100
BMPR1B (Homo sapiens, UniProt O00238)	cell-free assay	100
ERN1 (Homo sapiens, UniProt O75460)	cell-free assay	100
